Assay results pooled from the literature.
Lines come from different studies, so protocols differ.
Target: Muscarinic acetylcholine receptor M4 (CHRM4, Homo sapiens, UniProt P08173)
UniProt P08173, sequence (whole entry, looked up): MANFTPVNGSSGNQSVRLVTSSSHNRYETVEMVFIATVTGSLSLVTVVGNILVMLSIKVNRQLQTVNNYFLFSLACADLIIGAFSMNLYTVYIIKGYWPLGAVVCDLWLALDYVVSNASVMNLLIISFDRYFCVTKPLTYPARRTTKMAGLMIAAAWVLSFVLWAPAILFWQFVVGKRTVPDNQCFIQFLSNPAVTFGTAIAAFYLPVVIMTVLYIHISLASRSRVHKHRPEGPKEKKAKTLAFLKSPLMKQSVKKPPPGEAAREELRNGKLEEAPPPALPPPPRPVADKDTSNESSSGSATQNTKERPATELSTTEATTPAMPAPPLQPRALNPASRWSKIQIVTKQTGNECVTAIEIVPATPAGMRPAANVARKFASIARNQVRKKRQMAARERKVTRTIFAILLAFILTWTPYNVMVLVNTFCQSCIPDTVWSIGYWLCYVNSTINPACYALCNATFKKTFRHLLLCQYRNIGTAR

For `CCCC(CCC)c1nc2c(Nc3ccc(C#CCCCCCCCCN)cc3)nc3ccccc3c2[nH]1`, off-target affinity read “inactive” (PDSP screening).
`O=C(NO)c1ccc(CN2CCCCc3ccccc32)c(F)c1` gave an inhibition of 11.2% (radioligand binding, radioligand displacement; 10 µM, mean of replicates).
`OCCCN1CC[C@@H]2C[C@H]1c1cc(-c3ccc(C(F)(F)F)cc3)ccc12` has an inhibition of less than 50% (radioligand binding, PDSP competition binding; 10 µM).
With `CCN1/C(=C/C(C)=O)Sc2ccc(F)cc21` the inhibition was 0% (10 µM).
`CN(C(=O)n1cnc(-c2ccc[n+]([O-])c2)c1)C1CCCCC1` gave an inhibition of -2.99% (receptor binding; 10 µM, subtype M4).
`COc1cc(Cl)c(C(=O)N[C@@H](CN[C@H]2CC[C@@H](N)CC2)Cc2ccc(C#N)cc2)cc1-c1ccc(CN[C@H](C)c2ccc(C)cc2)o1` has an inhibition of 28% (agonist response, antagonist; human cells; 10 µM, M4 antagonist).
`CC[C@]12CCCN3CCc4c([nH]c5ccccc45)[C@]31N(Cc1cn(Cc3ccccc3)nn1)C(=O)C2` gave an inhibition of 75% (beta-arrestin recruitment, antagonist, PathHunter chemiluminescence; 20 µM, together with: agonist at EC80).
`CCS(=O)(=O)c1nc(S(=O)(=O)c2ccccc2Cl)c(N2CCN(C)C(=O)[C@H]2C)s1` gave an inhibition of 19.9% (10 µM).

For quick reference, copied from above:
`CC[C@]12CCCN3CCc4c([nH]c5ccccc45)[C@]31N(Cc1cn(Cc3ccccc3)nn1)C(=O)C2` gave an inhibition of 75% (beta-arrestin recruitment, antagonist, PathHunter chemiluminescence; 20 µM, together with: agonist at EC80).
